Results of several laboratories.
Each line is one published result; not all experiments were run side by side. ± gives the spread as reported.

For CC(=NO)c1cccc(C(C)(C)NC(=O)Nc2ccc(Cl)c(-c3nc(C(F)(F)F)cs3)c2)c1, “apparent Ki ratio” read 220 (IMPDH 2, Staphylococcus aureus, Y446C; relative to: mutant over wild type).
CN(Cc1cn(-c2ccc(OCCCF)cc2)nn1)S(=O)(=O)c1ccc(CN2CCOCC2)cc1 — result for “inhibition of tracer uptake”: > 95% (CXCR4; blocking agent, microPET imaging; male J:NU nude mouse, bone marrow; intraperitoneal, 30 mg/kg, 30 min before tracer, with: intravenous 18F-labelled compound; relative to: tracer alone).
CC(CCN[C@H](CN[C@H](CO)CN1CCC[C@H]1CN[C@H](CN)c1ccccc1)c1ccccc1)c1ccccc1 (stereo partly shown) — result for “potentiation of amikacin”: 2 fold (Acinetobacter baumannii; bacterial growth; 16 µM, fold shift of IC90, with: amikacin).
For C[C@H](CS)C(=O)N[C@@H](Cc1c[nH]c2ccccc12)C(=O)O, “MIC of meropenem” read 32 µg/mL (Escherichia coli; IMP-1 producing; 25 µM, with: meropenem).
With O=C(O)c1cc2cc(Cl)cc(OCc3cn(CCC(=O)N4CCC(c5ccc(Cl)c(Cl)c5)CC4)nn3)c2c(Cl)c1OCc1cn(CCC(=O)N2CCC(c3ccc(Cl)c(Cl)c3)CC2)nn1 the selectivity ratio was > 25 fold (mPTPB vs mammalian PTPs; enzyme activity, inhibitor, biochemical enzyme; relative to: mammalian PTP over mPTPB).
COc1ccc(OCC2c3cc(OC(C)C)ccc3CCN2C(=O)c2cccc(Cl)c2)cc1 (racemic) — result for “effect on receptor activity”: “no effect” (GluN1/GluN3 NMDA receptor; glycine-activated current; concentration not given).
With COc1ccc(CN[C@@H]2CO[C@H](C(c3ccccc3)c3ccccc3)C[C@H]2O)cc1 the inhibition was 0.6% (GABAA receptor; radioligand binding; 10 µM, with: [3H]muscimol).
For NC[C@@H](NC[C@@H]1CCCN1C[C@@H](CO)NC[C@@H](NCCC12CC3CC(CC(C3)C1)C2)c1ccccc1)c1ccccc1, “potentiation of amikacin” read 2.5 fold (Klebsiella pneumoniae; bacterial growth; 16 µM, fold shift of IC50, with: amikacin).
CCCN(CCN1CCN(c2nccc3ccccc23)CC1)[C@H]1CCc2nc(N)sc2C1 gave an EC50 of 42.6 ± 25.8 nM (dopamine D3 receptor, mouse; agonist; D2 receptor knockout mouse, nucleus accumbens membranes).
Under “signal enhancement relative to ThT”, Cc1nc2c[nH]c(/C=C/C=C/c3ccc(N(C)C)cc3)cn-2c1=O is recorded as 52 fold (PA-E2 fibrils; PA-E2 500 µM; relative to: ThT).
CN1CC[C@H](c2c(O)cc(O)c3c(=O)cc(-c4ccccc4F)oc23)[C@H](O)C1 gave an IC50 of > 1000 nM (CK1; kinase activity, inhibitor; with: ATP at Km).
CC(C)(NC(=O)Nc1ccc(Cl)c(-c2nc(C(F)(F)F)cs2)c1)c1cccc(C(N)=NO)c1 — result for “apparent Ki ratio”: 240 (IMPDH 2, Staphylococcus aureus, Y446C; relative to: mutant over wild type).
The GI50 of C=CC(=O)Nc1cc(-n2c(=O)ccc3cnc4ccc(-c5cn[nH]c5)cc4c32)ccc1C is reported as 950 nM (NB-4; cell growth; 72 h).
CCCCCCCCCC(=O)c1cc[nH]c1 — result for “HapR protein level”: “increased” (HapR; Vibrio cholerae; 1 µM; relative to: DMSO).
CC(C)(NC(=O)Nc1ccc(Cl)cc1)c1cccc(C(=N)NO)c1 — result for “apparent Ki ratio”: 330 (IMPDH 2, Staphylococcus aureus, G445S; relative to: mutant over wild type).
Cc1cc(N)nc(-c2ccc(CNCCc3cccc(F)c3)cc2)c1 gave a Ki of 1940 nM (Bacillus subtilis NOS bi-domain; enzyme activity, inhibitor).

Excerpt of the above:
For C[C@H](CS)C(=O)N[C@@H](Cc1c[nH]c2ccccc12)C(=O)O, “MIC of meropenem” read 32 µg/mL (Escherichia coli; IMP-1 producing; 25 µM, with: meropenem).
